{"data": "Assay results collected from several papers", "note": "Parts stem from different laboratories: compare values within a part only. Changes are numbered by the printed parent chain."}
{"data": "Study 1", "target": "Histone acetyltransferase KAT6A, winged helix 2, GST fusion (KAT6A, Homo sapiens, UniProt Q92794, residues 85-181)", "technique": "protein binding microarray", "form": "double-stranded DNA, one strand shown", "sample": "in vitro", "tested at": "not given", "setting": "8-mer, flanks averaged, mean of 2 arrays, mostly near background", "reference": "not given", "reading": "higher = stronger binding", "Residues (chain)": "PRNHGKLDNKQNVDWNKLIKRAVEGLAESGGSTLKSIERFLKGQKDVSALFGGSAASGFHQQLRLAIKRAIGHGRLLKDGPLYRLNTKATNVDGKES"}
{"Strand": "GATCTTAC", "E-score": -0.0464}
{"Strand": "GCGTATCA", "E-score": 0.13}
{"Strand": "GTTGAACA", "E-score": 0.0301}
{"Strand": "GTCCCGAC", "E-score": 0.182}
{"Strand": "AAATCAGC", "E-score": 0.0867}
{"Strand": "GAATTCGA", "E-score": 0.0689}
{"Strand": "GGGGTCAA", "E-score": 0.0923}
{"Strand": "GTACAGGA", "E-score": -0.00143}
{"Strand": "CAATGCGG", "E-score": 0.114}
{"Strand": "ATCTCCTC", "E-score": -0.00488}
{"Strand": "AGGTTCAA", "E-score": 0.0351}
{"Strand": "GCGCTTGA", "E-score": 0.0662}
{"Strand": "GTGTCCGA", "E-score": -0.0335}
{"Strand": "AATGTGCA", "E-score": -0.0805}
{"Strand": "CGTACTTC", "E-score": -0.096}
{"Strand": "AACGATTC", "E-score": 0.0455}
{"Strand": "ATGTACAT", "E-score": -0.0696}
{"Strand": "CGTACCAA", "E-score": "-5e-06"}
{"Strand": "ATTACGAG", "E-score": -0.0984}
{"Strand": "GAGTCGAA", "E-score": 0.068}
{"data": "Study 2", "target": "CCNF, cyclin fold, Cln2 fusion (human)", "technique": "yeast growth competition, sequencing", "sample": "yeast", "setting": "strong parent motif", "reference": "not given", "reading": "higher = stronger binding", "starting sequence": "PKN2 docking peptide (human); VSAVRKLDFSDTM"}
{"Change": "K6H", "normalised enrichment score": 6.84}
{"Change": "R5C", "normalised enrichment score": 2.48}
{"Change": "S2F", "normalised enrichment score": 6.9}
{"Change": "T12F", "normalised enrichment score": 7.33}
{"Change": "S10F", "normalised enrichment score": 7.07}
{"Change": "D8A", "normalised enrichment score": 7.92}
{"Change": "S10A", "normalised enrichment score": 7.25}
{"Change": "F9A", "normalised enrichment score": -0.0688}
{"Change": "T12I", "normalised enrichment score": 7.28}
{"Change": "S2E", "normalised enrichment score": 6.11}
{"Change": "F9W", "normalised enrichment score": 5.6}
{"Change": "K6R", "normalised enrichment score": 7.55}
{"Change": "D8P", "normalised enrichment score": 4.94}
{"Change": "K6N", "normalised enrichment score": 4.98}
{"Change": "F9V", "normalised enrichment score": 1.5}
{"Change": "F9R", "normalised enrichment score": 0.171}
{"Change": "D8T", "normalised enrichment score": 7.04}
{"Change": "K6P", "normalised enrichment score": 2.25}
{"Change": "D8H", "normalised enrichment score": 7.96}
{"Change": "A3I", "normalised enrichment score": 6.94}
{"Change": "T12R", "normalised enrichment score": 7.7}
{"Change": "S10N", "normalised enrichment score": 7.13}
{"Change": "A3Y", "normalised enrichment score": 6.12}
{"Change": "T12S", "normalised enrichment score": 6.97}
{"Change": "F9H", "normalised enrichment score": 0.285}
{"data": "Study 3", "target": "RING finger protein unkempt homolog, zinc fingers 1-6, GST-SBP tag (UNK, Homo sapiens, UniProt Q9C0B0, residues 30-357)", "technique": "RNA Bind-n-Seq", "form": "RNA", "sample": "in vitro", "tested at": "not given", "setting": "RNA with constant flanks, human and mouse sites, ends assumed", "reference": "input RNA pool", "reading": "higher = stronger binding", "all sequences stand within": "GGGAGUUCUACAGUCCGACGAUC … CAACAGAGGAUUGAGCAUCA", "sequence of UniProt Q9C0B0 (30-357, looked up)": "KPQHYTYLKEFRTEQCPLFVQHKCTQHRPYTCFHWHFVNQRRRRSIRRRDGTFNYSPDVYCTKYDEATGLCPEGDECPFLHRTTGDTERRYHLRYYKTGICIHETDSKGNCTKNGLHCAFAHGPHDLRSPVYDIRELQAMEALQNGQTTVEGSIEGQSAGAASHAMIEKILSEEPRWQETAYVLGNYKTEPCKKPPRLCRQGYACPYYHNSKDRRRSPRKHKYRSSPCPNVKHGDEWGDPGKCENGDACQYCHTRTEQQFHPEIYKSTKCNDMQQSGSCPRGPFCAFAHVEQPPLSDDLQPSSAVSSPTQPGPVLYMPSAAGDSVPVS"}
{"Strand": "AUAAUAAUGAUGGAACCUCUCCACCCUUUGGUUUACUCCGGAGUUCCUCAGUUGAGGAAAAAUCUUUAUCUCACAGAAAUUCAUUAGAUACAAACCUGACUUCCAUGCUUUUUCAGAACU", "bound/input enrichment [ratio]": 0.709}
{"Strand": "AGCUAUGAUGAGAGCUAUUAUCAUCUGUGGUGGGAAAAGCUAUGUAAAUAGGUAGAUUGUAUAGAGAGACUAUCUUGUGUUGUGCCUGUAUGAAUUUUUAAAAGUUGUUGACUGGAUUUU", "bound/input enrichment [ratio]": 0.891}
{"Strand": "UUAAUAAUAGGAAAAGGAGGUGAAACCAUAAAAAGCAUAAGCCAGCAGUCUGGUGCAAGAAUAGAACUUCAGAGAAAUCCUCCACCAAAUGCAGAUCCUAAUAUGAAGUUAUUUACAAUU", "bound/input enrichment [ratio]": 0.296}
{"Strand": "UAACUAUUCAUUUUUAGCUUUUGUCUCCAGUGCAUGAUCUCAUAUUUUUGCUUUUAUUUUUAGUAUAAGAACAUUUAUAAAAUCAUAUUUUUGUUACUGCAAUUGUUUUAUUUGUUGUGU", "bound/input enrichment [ratio]": 6.07}
{"Strand": "GCAGGUGUCAAUAGUGAUAGCCCUAAUAACUGUUCAGGAAAAAAGGUAGAACCUUCAGCUUUAGCUUGCCGAUCACAGAAUUUAAAGGAAUCUUCAGUAAAAGUAGAUAAUGAAAGCUGU", "bound/input enrichment [ratio]": 0.891}
{"Strand": "UAUCAUAAUGUGUAUACUCGAGAUCCUAAUUAUCUCAAUUUGUUCAUUAUUGUAAUGGAGAAUAGUAAUCUCCACAGUCCUGAAUAUCUGGAAAUGGCGUUGCCAUUAUUUUGCAAAGCU", "bound/input enrichment [ratio]": 0.314}
{"Strand": "UAGAGAACAAUGACCUCAUUUUAUUUUCUAUGUUAGUUAUUUAUUUCAAAAUUAACAUUUUAGUUGAUUUUUGUCUGAUAAGUCUAUGUUUUGCACUGCUAACUAUGAUGAGGGUUUAAA", "bound/input enrichment [ratio]": 1.57}
{"Strand": "UUGUGUAAAUGCGUUCGUGUUCUCAGUCUCCCUACCGACAGUGACAAGUCAAAGCCGCAGCUUUCCUCCUUAACUGCCACCUCUGUCCCGUUCCAUUUUGGAUCUUCAGCUCAGUUCUCA", "bound/input enrichment [ratio]": 0.209}
{"data": "Study 4", "target": "RNA binding protein fox-1 homolog 2, RRM domain, GST-SBP tag (RBFOX2, Homo sapiens, UniProt O43251-10, residues 100-194)", "technique": "RNA Bind-n-Seq", "form": "RNA", "sample": "in vitro", "tested at": "365 nM", "setting": "natural RNA segment, single round, ends assumed", "reference": "no-protein control", "reading": "higher = stronger binding", "all sequences stand within": "GGGAGUUCUACAGUCCGACGAUC … UGGAAUUCUCGGGUGCCAA", "Target sequence (chain)": "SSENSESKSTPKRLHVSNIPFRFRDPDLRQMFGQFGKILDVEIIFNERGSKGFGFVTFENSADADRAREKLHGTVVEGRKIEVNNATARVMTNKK"}
{"Strand": "UUUCACUACAGGUCUUGUUAAAAUUCUUUGCAGCACUUCGUGUCCCCUCACGUCCCAUGUGCUCAGACCCAGAAAAAGCAGAACAGAAUUAGAAGUGCCUCUGAGCCUUG", "RBNS enrichment (R)": 0.32}
{"Strand": "CAGGGCCCCUGGGGAUCUUGCCCCCUUUGACCUUCCCCAAAGGAUGGUCACACACCAGCACUUUAUACACUUCUGGCUCACAGGAAAGUGUCUGCAGUAGGGGACCCAGA", "RBNS enrichment (R)": 0.325}
{"Strand": "GGAUGCAACAUGGGGUCCCAAUGCCUGAGGAGAAGACCCCCCCCCAAGGCUGACUCGCUUUCACCAGGGCCACCAGGGCCAUCCAGUGUUGUUUAAUUACAGUCGGAAAG", "RBNS enrichment (R)": 0.391}
{"Strand": "CCCGUCUUCUCCAACACCACCUCUCCAGAGGCCAAGGAGGCCUUGGAAACGAUUCCCCCAGUCAUUCUGGGAACAUGUUGUAAGCACUGACUGGGACCAGGCACCAGGCA", "RBNS enrichment (R)": 0.737}
{"Strand": "UUUCCUAUUGCCAAAAGAAAGAAAGGGGGCCAAACAGCUCUGAAAUUUCCAAAAAAUGGCUAGAGGGAGAGUCCAGUUUCUGAGCUCUGUACCCAAAUUAAAAUCCUGAU", "RBNS enrichment (R)": 0.316}
{"Strand": "CUUGCUUUUCUGGUAUGUUCUAGGUGUAUUGUGACUUUUACUGUUAUAUUAAUUGCCAAUAUAAGUAAAUAUAGAUUAUAUAUGUAUAGUGUUUCACAAAGCUUAGACCU", "RBNS enrichment (R)": 0.696}
{"Strand": "AUAUACCACACCUCAUAGUUAGGCUUGGCAGUGGCCUGACUCUUGUAAAGACAAUGUAGAAAACACACUAAUUACUGUUUGUAGUGUCUUUGGAUGCUCACGGGUUCUGU", "RBNS enrichment (R)": 0.505}
{"Strand": "UUUAAGACCAUGAUAAUAGAGUAAAAAGGAAAGAAAGCCAGAAAUUACAAUUUUGGAUGCUAAAAAGUAACUUUCUAGUUAACCCUAAAGUCCUGUCAGAUUGUGAAGAA", "RBNS enrichment (R)": 0.57}
{"note": "A few entries again (study 2):"}
{"Change": "S10F", "normalised enrichment score": 7.07}
{"Change": "S10A", "normalised enrichment score": 7.25}
{"Change": "K6R", "normalised enrichment score": 7.55}
{"Change": "F9H", "normalised enrichment score": 0.285}
{"Change": "D8A", "normalised enrichment score": 7.92}
{"Change": "A3Y", "normalised enrichment score": 6.12}
{"Change": "S10N", "normalised enrichment score": 7.13}
{"Change": "R5C", "normalised enrichment score": 2.48}
{"Change": "A3I", "normalised enrichment score": 6.94}
